Published values pooled from the literature.
Every numbered part comes from another study and shows a few of its results, in no order. Positions count from the first letter of the parent shown.

Block 1 — technique: RNA Bind-n-Seq; form: RNA; medium: in vitro; tested at: 365 nM; reference: no-protein control; direction: higher = stronger binding
Target: RNA binding protein fox-1 homolog 2, RRM domain, GST-SBP tag (RBFOX2, Homo sapiens, UniProt O43251-10, residues 100-194)
Notes: natural RNA segment, single round, ends assumed
All sequences stand within: GGGAGUUCUACAGUCCGACGAUC … UGGAAUUCUCGGGUGCCAA
Residues (chain): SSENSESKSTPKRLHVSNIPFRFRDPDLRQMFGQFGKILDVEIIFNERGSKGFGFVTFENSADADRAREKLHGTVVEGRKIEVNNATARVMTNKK
Oligonucleotide | RBNS enrichment (R)
UUAUUAUUAUGUUAUCAGUAAUCACUGGCAAAAAAAAAAAAAACAAUGGCCAGGUACUACACUGUCGGGGAUUAUAGGUGGACUAACCACGUCUCUGCCUCCUAAAUUCC | 0.541
GAAAGCCGCUCUAUUUUGGUCUCUGUGAUAUUUUAAAUGCGUGACAGAAGCAAGCAAAUAAAGUCAGGAAGAAAUAUAUAUAUGAGAUAAUAUAGAUUGUAUUGAAAUCU | 1.87
CCACGCAGCCGCCUGCCCGGGAGAACCCUGCCUGAAGCUCUGGAAACUUGUGGGUGGGGCCCAGGGAGAUGGGGAGGGAGUGGCCCAGGCCUGCCCCUUCGCUCCUGCCU | 0.378
ACUUGGAAAAAUGUACAUGAUGUGAAACUGGGGUGCUAUGUUAAAAAUAAAUGUAUGAUAACUCAUGAUUUUGUGGUGUCCUGGUGUCAGUAUUUUCUGAUUUCUAUUUG | 0.332
ACAGCUUGCCUUUUUAAUGUUAGUCACAAUGUUUUUGUGGUUUGAAGUUUAGUUUAAUGUUAGUGCAGUGACGGGAAAUACACAUUAUGCUAAUGUUGAUGACAGAAUUU | 0.898
CUGGAAAAGGAGCUUCAGUAUUGUGGGGCUCAUAAAACAUGAAUCAAGCAAUCCAGCCUCAUGGGAAGUCCUGGCACAGUUUUUGUAAAGCCCUUGCACAGCUGGAGAAA | 0.342
AGUAGAAAACAACUUAGUUUUUCUUUUUUCCUGAAUGCGUCAUAGGCUUGUGAGUGAUUUUUGUCCAUUCAAUUGUGCCUUCUUUGUAUUAUGAUAAGAUGGGGGUACUU | 0.609
CAGCUCAGCACUCAGUCAGUGGUAACUUGUGCCCAGCCCUGUGCUAGGCGCUGACAUUAACAGGAGCAACCAGGGCCCAAUUCCUGGCCUUGGAGCUCAAAUCUUUCCUU | 0.258
CAUGGUUCAUCACGAGCAUGAGGGAACAGCAAGGGGCACGGUAUCACAGCCUGGAGACACCCACACAGAUGGCUGGAUCCGGUGCUACGGGAAACAUUUUCCUAAGAUGC | 2.24
CUCUCCGUCCCAGAGGCCACGAUCCAUCGGGCUGUUCUGAGGACUUCAAGGCAUCUCUUCCCCAUUCACCUAAAACCUCUGGCCUGAACAGAAAAGAGCCGGAGCUCUAA | 0.416
GUGGCAACCUUGCCUUCCUGACCUCAGCGGCCCUUCUGUUCCAUCCUCUGUGGGCAGGGGUGUGGCUUUGUUUUCCUCCCUCGUUUGCUUCCACCUCGUGCACAGCGCUC | 0.533
CGAGUUUGAGGCAGUCUUGCAAGAUUCUCAGACUAAUUUCCAAAAGGAAACCGGAUGCCAACUUCCCACGGGUUUACUGUGCCUCUGGCAUCCAGGGUCUUCAGUUUCCC | 0.239

Block 2 — technique: protein binding microarray; form: double-stranded DNA, one strand shown; medium: in vitro; tested at: not given; reference: not given; direction: higher = stronger binding
Target: Histone acetyltransferase KAT6A, both winged helices, GST fusion (KAT6A, Homo sapiens, UniProt Q92794, residues 1-181)
Notes: 8-mer, flanks averaged, mean of 2 arrays, mostly near background
Construct (chain): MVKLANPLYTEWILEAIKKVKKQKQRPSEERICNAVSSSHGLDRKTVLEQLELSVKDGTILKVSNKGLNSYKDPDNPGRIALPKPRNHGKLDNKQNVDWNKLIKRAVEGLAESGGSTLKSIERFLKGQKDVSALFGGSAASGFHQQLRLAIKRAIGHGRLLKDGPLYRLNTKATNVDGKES
Oligonucleotide | E-score
CAGCAGCG | 0.0963
GCCGTAAC | 0.31
CTCGAGTA | 0.012
CACTAAGC | -0.187
CTATTGCA | -0.0856
CGACGCCG | 0.376
GTTTCTTA | -0.0433
ATATGCCA | -0.0129
ATTTATTC | -0.0511
GCCCGTAC | 0.237
CATTTAGC | -0.105
CGAGACAC | -0.0801
TCAGACCA | -0.25
ATCAATCA | 0.0958
CTCCACAA | -0.177
GTAGGCGA | -0.0646
CCTCTTCA | -0.125
CTGTTCTC | -0.0254
ACTCCCAA | -0.261
ACTTTACC | -0.0347
AGAATCAC | 0.0874

Block 3 — target: CCND2, cyclin fold, Cln2 fusion (human); technique: yeast growth competition, sequencing; medium: yeast; notes: weak parent motif; reference: not given; direction: higher = stronger binding
Starting sequence: MICAL3 docking peptide (human); LQLRRQLSFSEDS
Change | normalised enrichment score
D12Q | 0.173
Q6R | 0.997
Q2S | 0.312
E11N | 0.19
L3K | 0.0233
S10T | 0.151
S10E | 0.282
Q2E | 0.119
S8V | 0.0684
F9V | 0.0201
R5L | 0.253
D12N | 0.291
Q2I | -0.00896
L3M | 0.217
F9D | 0.144
S8R | -0.371
L7A | 0.0724
E11R | 0.364
L7Q | -0.0208
S8G | 0.0228
Q2T | 0.028
D12F | 0.206

Block 4 — technique: DHFR PCA, deep sequencing; medium: yeast; with: (+)-ABA 200 µM; reference: wild-type fitted maximum; direction: higher = stronger binding
Target: ABI1, truncated, D143A, DHFR fusion (Arabidopsis thaliana)
Notes: methotrexate growth selection, single substitutions
Starting sequence: PYL1, truncated, DHFR fusion (Arabidopsis thaliana); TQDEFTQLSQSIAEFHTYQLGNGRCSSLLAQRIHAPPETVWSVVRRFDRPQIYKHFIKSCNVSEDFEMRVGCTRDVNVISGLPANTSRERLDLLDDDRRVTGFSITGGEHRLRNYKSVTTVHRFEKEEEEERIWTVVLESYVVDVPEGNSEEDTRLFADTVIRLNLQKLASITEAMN
Change | relative binding score [%]
S117Q | 73.9
V78C | 103
T119Y | -3.12
I79R | 92.5
E67D | 98.2
T106N | 69.8
S11E | 104
C72T | 99.9
F15L | 84.3
R69Y | 94.9
V142P | -13
A158M | 84.4
C60Q | 19.4

Block 5 — target: ATF2, bZIP domain (human); technique: DHFR protein complementation; medium: yeast; reference: wild-type JUN-FOS pair; direction: higher = stronger binding
Notes: single substitutions, most at no-binding floor
Starting sequence: JUN, bZIP domain (human); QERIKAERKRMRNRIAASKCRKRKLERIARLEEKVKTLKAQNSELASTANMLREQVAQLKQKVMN; partner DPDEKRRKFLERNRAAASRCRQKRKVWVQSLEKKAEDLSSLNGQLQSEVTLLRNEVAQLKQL
Change | binding fitness [natural log]
Q55P | -1.53
A49V | -1.39
L31T | -1.48
V56H | -1.46
K36R | -1.24
K39I | -1.4
V35S | -1.5
A40S | -1.27
L52S | -1.51
I28A | -1.47
A40T | -1.35
S47N | -1.29
L52T | -1.44
L45V | -1.52
L59G | -1.41
R30W | -1.36
E32P | -1.51

Block 6 — technique: RNA Bind-n-Seq; form: RNA; medium: in vitro; tested at: not given; reference: input RNA pool; direction: higher = stronger binding
Target: RING finger protein unkempt homolog, zinc fingers 1-6, GST-SBP tag (UNK, Homo sapiens, UniProt Q9C0B0, residues 30-357)
Notes: RNA with constant flanks, human-mouse chimeric sites, ends assumed
All sequences stand within: GGGAGUUCUACAGUCCGACGAUC … CAACAGAGGAUUGAGCAUCA
Residues (chain): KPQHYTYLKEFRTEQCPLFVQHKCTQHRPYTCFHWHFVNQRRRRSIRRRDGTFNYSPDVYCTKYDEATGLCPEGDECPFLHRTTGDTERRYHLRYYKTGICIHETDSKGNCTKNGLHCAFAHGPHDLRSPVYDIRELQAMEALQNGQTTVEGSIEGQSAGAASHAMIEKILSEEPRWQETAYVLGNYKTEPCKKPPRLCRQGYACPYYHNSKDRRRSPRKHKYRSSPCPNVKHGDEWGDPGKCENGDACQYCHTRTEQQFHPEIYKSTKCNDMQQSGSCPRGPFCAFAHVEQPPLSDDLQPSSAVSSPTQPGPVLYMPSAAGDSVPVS
Oligonucleotide | bound/input enrichment [ratio]
UUCAAAGAAAAGGGCAGCUGUGUCAUUACUUGGGAGACUCUGGGGGAGGGAAAUUCUGUUCUUUUGUUUAAUUUUCCCCCAAAUGAAGCCAAAGUGUGUGUUGAAGAAGGAAGAAUGAAU | 0.224
CUGUGACCACAAGAUCCUACCUGAGUGGCAGCUGAAGCACUUUUCUUCUCCUUGCCUGAACCCCCCCCCACUGCCCCCCCAUCCCCCGCAGAAUUCCGAGAUGUUGCCUCUGCACGGUUC | 1.32
AGGAGGAGGUUAAAGGGUGAAAAUGGGGUGGAAGACUGUGUCAUGGCUCUGGAGACACUGUUCAGUGUCCUGCUUUCUCUGUGCAGACUUAUGGCUCCUUACACGCCCUUUCUGACUGAG | 0.0783
AUGGAACAUUUCGAUGCAUCACUUAGUACCUAUUUCAAGGCCUUCCUGGGCCCCCGAGAUACAAGAGUCAAAGGAUGGUUCCUCCUGGACAAUUACAUCCCUACGUUUGUCUGUUCUGUU | 0.254
GAUCAUGAACCACCAUCCAGAAAUGAAAUGAGAUUACCCAGACGAGCCCAAAACCGCGCGCUACAGAAAAGUAAACUUAACCUUGCAGAGUUCCUUAAUGAAGAUACAAGUUAAGAGAGC | 0.304
GCAAAGGAUGAUGAGGCGGCAGCUGUUGCCCUUUCCUCUCUCGUUCAUGCUUUGGAUGAGUUAAACAUGGUGGCCAUCGUCCGAUAUGCUUAUGACAAAAGAUCUAAUCCUCAAGUCGGU | 0.361
CUGGCCUUCUGAGCAUCAGGGGCCUCCUUCUCUGCAUUCACUGCUUCUGCAUCAGAUACUUUCAGCUGCAACUCCCUACUGGGUGGGGCACCCAUUUCAGGCAGAAGGUUUUGGUACCCU | 0.172

Some of these lines once more (block 5):
Change | binding fitness [natural log]
Q55P | -1.53
L52S | -1.51
A40S | -1.27
R30W | -1.36
K36R | -1.24
L31T | -1.48
V56H | -1.46
S47N | -1.29
L52T | -1.44
